Assay results collected from several papers.
Every numbered part comes from another study and shows a few of its results, in no order. Several values in a cell are separate wells, animals, samples, runs or records.
UniProt Q8NI60, sequence (whole entry, looked up): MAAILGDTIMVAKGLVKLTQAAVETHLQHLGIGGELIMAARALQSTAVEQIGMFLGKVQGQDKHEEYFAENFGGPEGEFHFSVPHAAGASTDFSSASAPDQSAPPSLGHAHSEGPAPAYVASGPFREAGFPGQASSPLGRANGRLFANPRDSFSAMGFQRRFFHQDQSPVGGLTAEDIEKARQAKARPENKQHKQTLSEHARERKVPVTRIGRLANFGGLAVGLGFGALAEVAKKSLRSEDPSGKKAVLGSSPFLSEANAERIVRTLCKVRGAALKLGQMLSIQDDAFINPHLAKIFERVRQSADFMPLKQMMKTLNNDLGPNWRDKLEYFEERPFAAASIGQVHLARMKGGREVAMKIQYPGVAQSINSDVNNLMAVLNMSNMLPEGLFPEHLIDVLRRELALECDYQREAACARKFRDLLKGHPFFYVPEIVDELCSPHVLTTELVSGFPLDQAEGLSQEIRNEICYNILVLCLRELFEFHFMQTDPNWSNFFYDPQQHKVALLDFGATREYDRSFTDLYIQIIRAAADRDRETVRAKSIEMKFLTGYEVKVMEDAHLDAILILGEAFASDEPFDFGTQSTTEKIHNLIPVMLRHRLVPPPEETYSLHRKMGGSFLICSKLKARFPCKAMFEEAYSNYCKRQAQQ
UniProt P62344, sequence (whole entry, looked up): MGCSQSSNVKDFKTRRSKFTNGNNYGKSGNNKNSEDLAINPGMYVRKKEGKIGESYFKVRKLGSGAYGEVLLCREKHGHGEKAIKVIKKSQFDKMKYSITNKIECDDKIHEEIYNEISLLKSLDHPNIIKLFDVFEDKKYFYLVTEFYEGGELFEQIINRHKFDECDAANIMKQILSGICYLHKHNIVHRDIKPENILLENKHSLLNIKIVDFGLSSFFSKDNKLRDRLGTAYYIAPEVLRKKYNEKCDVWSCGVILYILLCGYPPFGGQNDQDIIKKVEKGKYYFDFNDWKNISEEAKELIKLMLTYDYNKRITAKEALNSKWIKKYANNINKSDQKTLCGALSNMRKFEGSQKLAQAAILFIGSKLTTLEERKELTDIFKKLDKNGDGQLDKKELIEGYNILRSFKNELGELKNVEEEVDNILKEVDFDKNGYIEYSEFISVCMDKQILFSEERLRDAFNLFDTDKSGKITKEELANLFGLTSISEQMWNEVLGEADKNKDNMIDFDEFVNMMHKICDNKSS
UniProt O15264, sequence (whole entry, looked up): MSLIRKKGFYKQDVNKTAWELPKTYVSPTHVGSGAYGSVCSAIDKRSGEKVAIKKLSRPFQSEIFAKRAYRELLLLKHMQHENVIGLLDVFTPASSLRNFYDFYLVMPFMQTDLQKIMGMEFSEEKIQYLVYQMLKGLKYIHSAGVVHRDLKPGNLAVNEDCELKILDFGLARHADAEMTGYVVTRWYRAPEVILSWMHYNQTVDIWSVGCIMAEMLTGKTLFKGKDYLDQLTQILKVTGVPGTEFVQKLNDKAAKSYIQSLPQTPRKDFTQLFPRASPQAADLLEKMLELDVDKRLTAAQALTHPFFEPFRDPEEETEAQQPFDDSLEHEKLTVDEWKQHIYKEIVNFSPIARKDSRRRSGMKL
UniProt P36507, sequence (whole entry, looked up): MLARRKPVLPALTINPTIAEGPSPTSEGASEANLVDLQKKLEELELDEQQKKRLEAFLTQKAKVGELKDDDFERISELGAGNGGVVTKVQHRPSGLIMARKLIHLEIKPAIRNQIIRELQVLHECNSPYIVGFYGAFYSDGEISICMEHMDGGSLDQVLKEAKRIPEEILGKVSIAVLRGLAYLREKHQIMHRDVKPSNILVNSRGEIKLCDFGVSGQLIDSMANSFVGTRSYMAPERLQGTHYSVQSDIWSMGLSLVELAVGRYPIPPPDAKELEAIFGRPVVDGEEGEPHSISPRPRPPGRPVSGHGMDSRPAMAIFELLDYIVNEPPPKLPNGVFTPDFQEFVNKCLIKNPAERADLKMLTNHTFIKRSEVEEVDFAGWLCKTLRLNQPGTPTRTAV
UniProt O00506, sequence (whole entry, looked up): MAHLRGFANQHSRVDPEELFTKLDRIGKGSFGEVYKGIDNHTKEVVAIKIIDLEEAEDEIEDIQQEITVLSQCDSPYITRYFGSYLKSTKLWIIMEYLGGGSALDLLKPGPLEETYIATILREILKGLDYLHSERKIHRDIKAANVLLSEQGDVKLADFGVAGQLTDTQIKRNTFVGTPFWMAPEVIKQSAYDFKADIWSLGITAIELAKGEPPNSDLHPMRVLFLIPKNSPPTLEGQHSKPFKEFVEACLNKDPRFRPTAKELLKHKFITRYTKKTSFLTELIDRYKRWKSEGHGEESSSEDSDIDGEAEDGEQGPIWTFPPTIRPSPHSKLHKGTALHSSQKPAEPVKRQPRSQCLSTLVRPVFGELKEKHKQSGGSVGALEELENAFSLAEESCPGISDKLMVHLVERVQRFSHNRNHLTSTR
UniProt Q00526, sequence (whole entry, looked up): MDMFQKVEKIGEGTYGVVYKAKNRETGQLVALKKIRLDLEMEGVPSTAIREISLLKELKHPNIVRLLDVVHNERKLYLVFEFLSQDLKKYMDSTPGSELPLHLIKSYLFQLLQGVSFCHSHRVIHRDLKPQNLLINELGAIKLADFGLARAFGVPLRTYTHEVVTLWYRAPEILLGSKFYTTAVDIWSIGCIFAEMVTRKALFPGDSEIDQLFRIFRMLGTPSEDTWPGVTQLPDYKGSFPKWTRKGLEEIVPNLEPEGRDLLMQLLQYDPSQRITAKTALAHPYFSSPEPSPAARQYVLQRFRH
UniProt P00519, sequence (whole entry, unmodified, looked up): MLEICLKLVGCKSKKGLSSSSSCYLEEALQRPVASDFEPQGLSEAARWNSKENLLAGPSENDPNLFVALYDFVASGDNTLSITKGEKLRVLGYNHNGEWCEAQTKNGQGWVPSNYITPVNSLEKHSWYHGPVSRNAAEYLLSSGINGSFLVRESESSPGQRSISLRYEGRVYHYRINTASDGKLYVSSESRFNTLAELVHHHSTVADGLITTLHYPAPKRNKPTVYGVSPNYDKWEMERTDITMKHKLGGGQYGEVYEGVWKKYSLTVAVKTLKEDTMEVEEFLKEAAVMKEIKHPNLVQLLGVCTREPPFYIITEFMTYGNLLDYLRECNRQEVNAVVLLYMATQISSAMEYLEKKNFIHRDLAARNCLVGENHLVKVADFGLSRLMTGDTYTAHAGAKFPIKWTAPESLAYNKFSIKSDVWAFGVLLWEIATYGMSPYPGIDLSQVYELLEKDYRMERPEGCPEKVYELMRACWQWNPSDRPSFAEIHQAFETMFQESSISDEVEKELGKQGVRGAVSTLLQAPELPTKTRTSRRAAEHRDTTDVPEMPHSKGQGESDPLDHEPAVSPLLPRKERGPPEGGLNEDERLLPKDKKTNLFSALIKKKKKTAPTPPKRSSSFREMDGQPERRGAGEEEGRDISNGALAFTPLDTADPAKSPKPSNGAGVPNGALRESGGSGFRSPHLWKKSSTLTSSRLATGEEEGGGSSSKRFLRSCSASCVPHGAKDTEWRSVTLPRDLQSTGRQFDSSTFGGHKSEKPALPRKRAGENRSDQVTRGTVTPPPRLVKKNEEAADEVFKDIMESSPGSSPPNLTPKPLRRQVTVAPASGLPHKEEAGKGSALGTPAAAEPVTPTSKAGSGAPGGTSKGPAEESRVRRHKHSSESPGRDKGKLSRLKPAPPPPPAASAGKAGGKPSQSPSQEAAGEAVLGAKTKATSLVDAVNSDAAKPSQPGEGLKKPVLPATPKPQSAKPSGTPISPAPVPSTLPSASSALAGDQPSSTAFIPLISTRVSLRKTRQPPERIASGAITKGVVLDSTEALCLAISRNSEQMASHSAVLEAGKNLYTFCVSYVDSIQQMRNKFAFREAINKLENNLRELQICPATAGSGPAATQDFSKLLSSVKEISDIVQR
UniProt Q16539, sequence (whole entry, looked up): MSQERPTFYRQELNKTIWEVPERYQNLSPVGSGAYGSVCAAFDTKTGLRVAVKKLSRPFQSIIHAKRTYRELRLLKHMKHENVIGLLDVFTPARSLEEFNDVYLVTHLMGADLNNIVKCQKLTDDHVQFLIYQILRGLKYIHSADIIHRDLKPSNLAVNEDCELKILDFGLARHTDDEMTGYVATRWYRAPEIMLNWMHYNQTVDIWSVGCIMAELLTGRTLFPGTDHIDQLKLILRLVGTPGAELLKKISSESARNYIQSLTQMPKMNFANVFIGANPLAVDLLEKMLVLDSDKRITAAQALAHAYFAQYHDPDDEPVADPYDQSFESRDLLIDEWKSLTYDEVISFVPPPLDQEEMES

Block 1 — SMILES: CCC(=N\O)/C(C)=C/c1ccc(F)cc1; read-out: cell-free assay; technique: competition with immobilised ligand; concentration: 1 µM
It gave 84% for remaining binding (CDK3 (Homo sapiens, UniProt Q00526)).
For STK25 (Homo sapiens, UniProt O00506): remaining binding read 86%.
ACVR1 (Homo sapiens, UniProt Q04771) — remaining binding: 80%.
FYN (Homo sapiens, UniProt P06241) — remaining binding: 100%.
It gave 75% for remaining binding (TBK1 (Homo sapiens, UniProt Q9UHD2)).
For FGFR3 (Homo sapiens, UniProt P22607, G697C): remaining binding read 84%.
The remaining binding was 92% (MAPK13 (Homo sapiens, UniProt O15264)).
The remaining binding was 100% (MAPK14 (Homo sapiens, UniProt Q16539)).

Block 2
SMILES: COc1cc(C(=O)OCCCN2CCCN(CCCOC(=O)c3cc(OC)c(OC)c(OC)c3)CC2)cc(OC)c1OC
The “paw withdrawal frequency” was 90% and 70% and 60% and 80% (von Frey, 0.4 g filament; mouse, CFA inflammatory pain; subcutaneous, 10 mg/kg, after CFA, before dosing).
For von Frey, 0.4 g filament; mouse, CFA inflammatory pain; intravenous, dose not given, 1 h post-dose, first injection, day 1: “paw withdrawal frequency” read 70% and 90% and 80%.
For von Frey, 0.4 g filament; mouse, CFA inflammatory pain; subcutaneous, 10 mg/kg, 1 h post-dose, first injection, day 1: “paw withdrawal frequency” read 60% and 70% and 80% and 90%.
For von Frey, 0.4 g filament; mouse, CFA inflammatory pain; subcutaneous, 10 mg/kg, 3 h post-dose, first injection, day 1: “paw withdrawal frequency” read 80% and 70% and 90% and 60%.
For von Frey test; mouse, STZ diabetic neuropathy; subcutaneous, 30 mg/kg, second of three doses, 0 h: “paw withdrawal frequency” read 0.03 fraction of stimuli and 0.08 fraction of stimuli and 0.13 fraction of stimuli.

Block 3 — read-out: enzyme activity; action: inhibitor; concentration: 0.5 µM; relative to: control
Target: RAC-alpha serine/threonine-protein kinase (AKT1, Homo sapiens, UniProt P31749)
UniProt P31749, sequence (whole entry, looked up): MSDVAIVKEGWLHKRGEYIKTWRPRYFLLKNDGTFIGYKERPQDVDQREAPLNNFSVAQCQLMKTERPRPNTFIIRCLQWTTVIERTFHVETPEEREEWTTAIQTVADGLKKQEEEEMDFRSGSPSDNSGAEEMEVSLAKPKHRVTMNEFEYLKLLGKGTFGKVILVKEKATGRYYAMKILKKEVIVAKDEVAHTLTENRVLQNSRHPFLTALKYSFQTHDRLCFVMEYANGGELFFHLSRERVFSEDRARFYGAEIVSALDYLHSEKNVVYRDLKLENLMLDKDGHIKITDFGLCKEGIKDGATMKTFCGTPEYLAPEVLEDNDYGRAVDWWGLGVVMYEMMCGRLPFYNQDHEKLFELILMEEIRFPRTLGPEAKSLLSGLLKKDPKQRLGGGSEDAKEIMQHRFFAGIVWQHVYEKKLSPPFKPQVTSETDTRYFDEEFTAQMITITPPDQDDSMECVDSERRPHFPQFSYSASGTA
For `C#Cc1cccc(Nc2ncnc3cc(OCCOC)c(OCCOC)cc23)c1`, the remaining activity was 93.7%.
`O=C1NC(=O)C(c2cn(CCCn3ccnc3)c3ccccc23)=C1Nc1ccccc1` gave a remaining activity of 101%.
`CN(C)c1ccc(C=C2C(=O)Nc3ccccc32)cc1` has a remaining activity of 101%.
The remaining activity of `Cn1sc(=O)n(Cc2ccccc2)c1=O` is reported as 101%.
For `Cc1nc(-c2ccccc2)c(-c2ccncc2)o1`, the remaining activity was 102%.
With `NCCNc1ncc(C(N)=O)c(Nc2cccc(C(F)(F)F)c2)n1` the remaining activity was 96.4%.
The remaining activity of `Cc1ccc(NC(=O)c2ccc(CN3CCN(C)CC3)cc2)cc1Nc1nc(-c2cccnc2)cs1` is reported as 93.2%.
With `COc1cc2ncnc(Nc3ccc(F)c(Cl)c3)c2cc1OCCCN1CCOCC1` the remaining activity was 94.1%.
With `O=C1NC(=O)C(c2cn(CCCO)c3ncccc23)=C1c1cnccn1` the remaining activity was 98.6%.
`Nc1ccc2ncnc(NCCc3ccc(Oc4ccccc4)cc3)c2c1` gave a remaining activity of 98.2%.
`O=C(O)c1ccc2c3c1cccc3c(=O)n1c3ccccc3nc21` gave a remaining activity of 101%.
With `COc1ccc(CNC(=O)Nc2ncc([N+](=O)[O-])s2)cc1` the remaining activity was 102%.
`Nc1[nH]nc2nc3ccccc3nc12` has a remaining activity of 106%.
`O=c1c2ccccc2[nH]c(=S)n1CCN1CCC(=C(c2ccc(F)cc2)c2ccc(F)cc2)CC1` has a remaining activity of 98.3%.
With `COc1cc2nccc(Oc3ccc(NC(=S)NC(=O)c4ccccc4C)cc3)c2cc1OC` the remaining activity was 95.7%.
`OCC(O)CCON=C1C(c2c(O)[nH]c3ccccc23)=Nc2ccccc21` (centres unmarked) has a remaining activity of 95.6%.

Block 4 — action: inhibitor; concentration: 1 µM
SMILES: CC#CC(=O)N1CCC[C@H]1c1nc(-c2ccc(C(=O)Nc3ccccn3)cc2)c2c(N)nccn12
It gave 17% for inhibition (NEK5 (Homo sapiens, UniProt Q6P3R8); enzyme activity).
It gave 6% for inhibition (Non-receptor tyrosine-protein kinase TYK2, JH1 domain (TYK2, Homo sapiens, UniProt P29597)).
The inhibition was 2% (COQ8A (Homo sapiens, UniProt Q8NI60); enzyme activity).
The inhibition was 19% (Tyrosine-protein kinase ABL1, phosphorylated (ABL1, Homo sapiens, UniProt P00519, F317L); enzyme activity).
For CDPK1 (Plasmodium falciparum, UniProt P62344); enzyme activity: inhibition read 95%.
For MAP2K2 (Homo sapiens, UniProt P36507); enzyme activity: inhibition read 8%.

A few entries again (block 1):
The remaining binding was 100% (MAPK14 (Homo sapiens, UniProt Q16539)).
It gave 75% for remaining binding (TBK1 (Homo sapiens, UniProt Q9UHD2)).
ACVR1 (Homo sapiens, UniProt Q04771) — remaining binding: 80%.
FYN (Homo sapiens, UniProt P06241) — remaining binding: 100%.
